# Experimental data from different studies.
# ± gives the spread as reported.
# Organism: Trypanosoma brucei rhodesiense
Structure (SMILES),test,test system,setting,IC50
O=[N+]([O-])c1ncn(CCCN2CCN(Cc3ccc(C(F)(F)F)cc3)CC2)n1,growth,STIB900,bloodstream trypomastigotes,0.5 to 6 µM
O=[N+]([O-])c1ncn(CCCN2CCN(c3ccc(C(F)(F)F)cc3)CC2)n1,growth,STIB900 bloodstream trypomastigotes,,0.5 to 6 µM
O=[N+]([O-])c1ncn(CCCNc2nc(-c3ccccc3)nc3ccccc23)n1,growth,STIB900,bloodstream trypomastigotes,0.5 to 6 µM
O=[N+]([O-])c1nccn1CCCCNc1nc2ccc(Cl)cc2s1,growth,STIB900 bloodstream trypomastigotes,,0.5 to 6 µM
O=[N+]([O-])c1ccc2[nH]ccc2c1,,"trypomastigotes, IL1501",,> 154 µM
O=[N+]([O-])c1ncn(CCCNc2nc3ccccc3s2)n1,growth,STIB900 bloodstream trypomastigotes,,0.5 to 6 µM
O=C1NC(=S)S/C1=C\c1cn(Cc2cccc(Cl)c2)c2ccc([N+](=O)[O-])cc12,,"trypomastigotes, IL1501",,> 61 µM
CCC[C@H](NC(=O)CN1C(=O)SC(=Cc2ccc3c(c2)OCO3)C1=O)C(=O)OCC,cell viability,IL1501,72 h,> 58 µM
O=C(Cn1cnc([N+](=O)[O-])n1)Nc1ccc(-c2ccc(Cl)cc2)cc1,parasite growth,STIB900 trypomastigotes,,0.5 to 6 µM
O=C1NC(=S)S/C1=C\c1c[nH]c2ccc([N+](=O)[O-])cc12,,"trypomastigotes, IL1501",,81.9 ± 2.29 µM
